Results of several laboratories.
Each numbered part is a random draw from the data of one study; scales do not carry over between parts.

Set 1
Target: Hepatocyte nuclear factor 3-alpha (Foxa1, Mus musculus, UniProt P35582, residues 1-468, full length assumed)
Technique: EMSA with sequencing
Molecule type: double-stranded DNA, one strand shown
Medium: in vitro
Tested at: 10 and 20 nM
Notes: whole designed probe, mean of two concentrations, ends assumed
Baseline: negative control set to 0
Direction: higher = stronger binding
Construct (chain): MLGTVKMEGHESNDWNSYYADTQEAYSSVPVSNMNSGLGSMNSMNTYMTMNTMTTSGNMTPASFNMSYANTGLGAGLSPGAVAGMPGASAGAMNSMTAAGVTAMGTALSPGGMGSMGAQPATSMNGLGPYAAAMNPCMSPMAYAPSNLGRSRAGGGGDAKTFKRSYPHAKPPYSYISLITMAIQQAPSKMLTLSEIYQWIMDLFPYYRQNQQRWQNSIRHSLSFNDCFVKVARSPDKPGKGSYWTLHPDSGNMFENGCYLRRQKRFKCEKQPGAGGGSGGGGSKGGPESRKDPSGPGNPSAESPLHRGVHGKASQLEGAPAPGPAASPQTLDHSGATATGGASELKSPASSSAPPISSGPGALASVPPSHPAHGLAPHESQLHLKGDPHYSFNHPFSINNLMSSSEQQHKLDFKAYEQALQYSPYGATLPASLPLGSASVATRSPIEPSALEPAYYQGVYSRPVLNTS
Oligonucleotide | normalised bound fraction
GTGAGCGGTGCCCATTGATGGGGAACTGGGCTTCGTATAATTACAATTCGTAAAATCAGTTGGCCTAATACTGTCTGAATAAACTTTTATTTAAAAAAAGAAAAAACGAAAATGTTATATGTAAACAGGGACTCTGGGAAGATATGAAGAGTTGGTAGTCTCCACTCTCATAGAAAACAAAGCCCGAAGAGGCAGGGGTGGGAGGAGTCCTAAAGAAGATTTCACTGGGATCGTGGGGAC | 0.242 ratio
GTGAGCGGTGCCCATTGATGGGGAACCCCTCATCCTGGGTGTCGGGGTGGGAGGTGTTCTCATCATGAATGGGAGGCGTACCCAGTGACTCACCAGCCTTTTTTTAACCAAACCAGAGTGTAAACAAATGGCTGTGTGTCACACCATAATCGACATAGCAAGATATGATACATGCCAGGAGAGAAAAAGAAAGTGCTGATGGAAAAATAATCTCATTAGTTTCACTGGGATCGTGGGGAC | 0.309 ratio
GTGAGCGGTGCCCATTGATGGGGAACTAAAATGGAAGCATGCAAGTTTAGATTGAAAGAGAAAATATAAGCTTCAAAAACTCTTTAGTTCTACATTTTACAAAAGTAAACATTTTACAAAGTAAACATAAAGTAAACATTATGATAGTAATTACTATCATACCACAGGTATAAACAGTAACTTGGAAAAATTTTCCCTTTTAAGACCTTGCATAAAACATTTCACTGGGATCGTGGGGAC | 0.535 ratio
GTGAGCGGTGCCCATTGATGGGGAACACAGCAACTAGGTAGAGAGAGTTCACAGTTTGTGAACTCTGTGAATCTGGTATCAGGCTGGCTGGGAGAAGGGCCTAAAGGGTGTGTGAAATGTAAACAAGGGCTTCCTGACGCTGCTCTGTGACTTGTGCTAAACTTTCTGGGGGTGGCAGACCCAGAGTAGTCATACCCAATCCATGAATCCAACATTCACTTTCACTGGGATCGTGGGGAC | 0.416 ratio

Set 2
Target: Ras GTPase-activating protein-binding protein 1, RRM domain (G3BP1, Homo sapiens, UniProt Q13283)
Sequence of UniProt Q13283 (whole entry, looked up): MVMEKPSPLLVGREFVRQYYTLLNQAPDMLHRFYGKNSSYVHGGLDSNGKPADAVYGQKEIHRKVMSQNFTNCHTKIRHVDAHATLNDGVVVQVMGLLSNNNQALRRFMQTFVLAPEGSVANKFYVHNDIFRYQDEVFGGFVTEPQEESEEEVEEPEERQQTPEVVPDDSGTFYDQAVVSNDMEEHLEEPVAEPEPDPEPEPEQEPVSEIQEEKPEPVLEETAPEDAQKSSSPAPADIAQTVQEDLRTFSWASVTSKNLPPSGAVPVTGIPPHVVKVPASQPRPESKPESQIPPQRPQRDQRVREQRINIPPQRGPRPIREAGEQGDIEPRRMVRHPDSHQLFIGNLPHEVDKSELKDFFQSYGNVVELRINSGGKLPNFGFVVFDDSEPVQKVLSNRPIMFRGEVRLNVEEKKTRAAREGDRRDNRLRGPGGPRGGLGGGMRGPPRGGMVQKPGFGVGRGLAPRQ
Technique: RNA Bind-n-Seq
Molecule type: RNA
Medium: in vitro
Tested at: 1 µM
Notes: whole 134-nt RNA, ends assumed
With: 150 mM KCl
Baseline: input library
Direction: higher = stronger binding
Shared flanks, not repeated: GGGAGUUCUACAGUCCGACGAUC … UGGAAUUCUCGGGUGUCAAGG
Oligonucleotide | log2 enrichment
GCAGGAAGUAAAAACAAAUGGAAAUGCUUCGGAUAGUGGCAGGGGUGGGGGUUGCUAAGGAAAGGGUGGGAUGGGAGUGGGUAAAGAAAA | 1.34
CCUGUGCUACACAUCGUAUGUACCGAAUCGGGUUUUUGGGAAAAAAAGGGUUUUUUUGGGAAAGUAUUAUGUUACGCCGUUCGGAUCUGC | -0.268
UAACUUUAGAGGAGGAUCUGAUGGAUAUGGCAGUGGACGUGGAUUUGGGGAUGGCUAUAAUGGGUAUGGAGGAGGACCUGGAGGUGGCCA | -0.164
AAGUCCUGUGCUACACAUCGUAUGUACCGAAUCGGUUUUGGGUUUUGGUUUUGGGGAAAGUAUUAUGUUACGCCGUUCGGAUCUGCACUU | -0.188
UUUUCUGUUUGAAACAGUUUUAUACUUUCUGAUAUAGUACUUGAAAUUCUUACCAGAAAAUUACUUUGGAGUUUUGAAGCCUUUAUUAAU | -0.0715
UGGGAGGUGGAUUUUGUUUAUUUUUUUAGCUCAUUUCCAGGGGUGGGAAUUUUUUUUUAAUAUGUGUCAUGAAUAAAGUUGUUUUGGAAA | 1.08
GUCCUGUGCUACACAUCGUAUGUACCGAAUCGGUUUUUUUGGAAAAAGGUUUUUUUGGAAAGUAUUAUGUUACGCCGUUCGGAUCUGCAC | -0.405
CUCAAGUCCUGUGCUACACAUCGUAUGUACCGAAUCGGAGGUUUGGAAAAAGGAAAGUAUUAUGUUACGCCGUUCGGAUCUGCACUUCCA | -0.243
UAACUUUAGAGGAGGAUCUGAUGGAUAUGGCAGGGGACGUGGAUUUGGGGAUGGCUAUAAUGGGUAUGGAGGAGGACCUGGAGGUGGCAA | -0.252
GUCCUGUGCUACACAUCGUAUGUACCGAAUCGGGGAAAGGGGAAAGGGGAAAAAGGGGAAAGUAUUAUGUUACGCCGUUCGGAUCUGCAC | 1.37

Set 3
Target: RNA binding protein fox-1 homolog 2, RRM domain, GST-SBP tag (RBFOX2, Homo sapiens, UniProt O43251-10, residues 100-194)
Technique: RNA Bind-n-Seq
Molecule type: RNA
Medium: in vitro
Tested at: 365 nM
Notes: natural RNA segment, single round, ends assumed
Baseline: no-protein control
Direction: higher = stronger binding
Shared flanks, not repeated: GGGAGUUCUACAGUCCGACGAUC … UGGAAUUCUCGGGUGCCAA
Target sequence (chain): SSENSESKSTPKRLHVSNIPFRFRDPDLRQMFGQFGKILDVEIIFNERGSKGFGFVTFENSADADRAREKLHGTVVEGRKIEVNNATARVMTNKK
Oligonucleotide | RBNS enrichment (R)
GCCCCUCAAAGCCACCUGAACCGUCGUCAACUUACCCAGCCUGUCUCCAUUAAACACCAGGAACCAACUGAGUGUUCUGUUUCUAACUGCACAGCACAAAGCUAGGGCUC | 0.444
AUUUUAGGUGUAAUUAUGACCUGGCUAUUAUUUUCAUUUGGAAAUUAAGCAUGGCAUAAGAAGAUAUGAUUGUGUGUCAAGGUGACAAGGGGUGAACUUCAGAUGGCUCU | 0.407
AUAUGUACCCUUUCCACCCCUUGACUUGCUGAAGAAACGUUAUAGAAGAAAUUAAAUGAAUUUCCCAGGCUUUUAGGAUCCUCUGAAAUUUUGAGGAUAGGUGAGGCCUG | 0.973
UGGGAUGGGAGAGGAUGUCCCCAGGAUGGGGACAGAGGAAGCCCUGCUAGGGUCUCCUAGCCCAGUAAGCCAAAUGGGAACUAUAAGCAGAUCAAAAUUUUACACUAGCU | 0.525
UGCAAAUCUGAUGGCCUUAAUUUCCUUUUUGACACUGAAAGUUUUGUAAAAGAAAUCAUGUCCAUACACUUUGUUGCAAGAUGUGAAUUAUUGACACUGAACUUAAUAAC | 0.263
CGGUGCUGUGCCUUCAGAUGGGAGGUGGGCGCGGUGGCCUCCUCCUUCCCUCCAGGACCUGCCCGUGUGAAGACCCCCCGGAGUGCUGAGCUUCAGGGCUGCGUGGAAAG | 0.215
CCCCUUUCUUUGCAACUUCCCAGCAACAAUAAUGAUUUUCUUGCCAGGCCGUCUCUUGCUCCCUAAUUCAUUUCCCAGGAAGCUGUGAUACAGGGUGAAAUAAAGUCUUG | 0.513
AAGCCCGAGUCAGGGCACUUGUUAUUUAAAUGUGCCAUUUCCCAGGUUGCCACCCUUCAUAGAGUUUAGGCAUGCAGUUUGCUUAGCCAGUGUAGGAAGCCUCAUGAGAA | 0.44
GGUCUUGAGGGUUGACCAUGUUGCGUCAUCAUCAACAUUUUGGGGGUUGUGUUGGAUGGGAUGAUCUGUUGCAGAGGGAGAGGCAGGGAACCCUGCUCCUUCGGGCCCCA | 1.25
ACUGUCCCUCCUUGAGCACCAGCCCCACCCAAGCAAGCAGACAUUUAUCUUUUGGGUCUGUCCUCUCUGUUGCCUUUUUACAGCCAACUUUUCUAGACCUGUUUUGCUUU | 0.514
UCCCAGCGCCUGCCUGCUGGGGCUGCCUGCAUGCCUCCCCUGCACCUGGGGGUACCCGCAUCCACUUCCUUUCCCCCUUUUAACAAAAGAGAAGAACGAAUUCCAAACCA | 21.1
UAAAGUUGUUCUGUUAACUUUUGUACCAAAUAGCAAUACAAACUAGUUGGAACAGUUGGAACUUACAUACAUGGGGACUGGAAAUCUCUAUUUUGUCCCUGAAUAAUAUU | 0.272

Set 4
Target: Centromere-binding protein 1, full length, N-terminal tag (CBF1, Saccharomyces cerevisiae, UniProt P17106, residues 1-351)
Sequence of UniProt P17106 (whole entry, looked up): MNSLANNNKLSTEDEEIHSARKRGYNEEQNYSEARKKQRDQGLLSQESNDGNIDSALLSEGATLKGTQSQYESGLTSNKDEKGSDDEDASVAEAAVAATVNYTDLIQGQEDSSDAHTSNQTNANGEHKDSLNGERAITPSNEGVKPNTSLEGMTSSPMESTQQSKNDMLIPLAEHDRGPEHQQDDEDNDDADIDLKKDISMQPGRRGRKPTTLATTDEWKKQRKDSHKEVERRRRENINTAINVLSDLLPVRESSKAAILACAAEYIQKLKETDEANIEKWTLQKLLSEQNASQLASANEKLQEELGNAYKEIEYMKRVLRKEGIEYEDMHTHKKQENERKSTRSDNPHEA
Technique: protein-binding microarray
Molecule type: double-stranded DNA, one strand shown
Medium: in vitro
Tested at: 0.8 µM
Notes: whole 60-bp probe, no competitor
Direction: higher = stronger binding
Shared flanks, not repeated: … GTCTTGATTCGCTTGACGCTGCTG
Oligonucleotide | fluorescence intensity
CCTAACTACTATAATTGTGACACATAGCTTCGTACA | 577 a.u.
GAAACTCATTATACCGTGATTACCAATTTCCCATAG | 679 a.u.
GAAAGATAATTTTGTCACGTTTGTTCTGGTGGGTAG | 1400 a.u.
GAAAAGGGTAAGAGTGACATCATAATTAGGGGTTAG | 551 a.u.
TGTACGAAGCTATCACACGTGACTATAGTAGTTAGG | 11900 a.u.
GAACGCATAGTGTGTCACCAAAGGTTGAGAGAATAG | 570 a.u.
CTACTAGTACATTATCACATGCGGTGTAAGAAGTTC | 1160 a.u.
GAAGGGATGCTTCGTCACGTAAAATGGCCGCCGTAG | 524 a.u.
TGTACGAAGCTATATCATGCTAGTATAGTAGTTAGG | 508 a.u.
CTATGAGGAATTGACAACGTGTTTGTATAAGATTTC | 632 a.u.
GAATCTGTTTCCCGTATCGTGGTGGAAAAAGATTAG | 538 a.u.
GAAGACTATTTTGACCATGTGCTCAACTAGAAGTAG | 1780 a.u.
CTACAACTTCCATAGTACGTGCCTGCTACTGTGTTC | 548 a.u.
GAATACAAGCCGTGTGGGGTGATTACGCCGTACTAG | 527 a.u.
CTACAAGTTTGTGCGCACGACGCCTGTCCGTTGTTC | 553 a.u.
CCTAACTACTATAACTACGTGGCATAGCTTCGTACA | 506 a.u.
TGTACGAAGCTATGGCACGCGATTATAGTAGTTAGG | 613 a.u.
GAAATCAGAAGGATTCTCACCTGGTTGCAACCATAG | 516 a.u.
CTATACATACGGAATCATGAGATTCTAAATTTATTC | 593 a.u.
GAAATATAAGATTACCACGAGCGAGAGTAAAAATAG | 588 a.u.
TGTACGAAGCTATTGCATGTGTATATAGTAGTTAGG | 569 a.u.
CTAATCCCTGCGCCCGGCGTGCTCCACATTAAGTTC | 524 a.u.
GAAAGCGGTTTTAATCACGTTACCGTTTATTTCTAG | 3690 a.u.
CTAAGTTGACGAGTTCACGTTCATTCTTCCTTGTTC | 546 a.u.
